Experimental data from different studies.
Every numbered part comes from another study and shows a few of its results, in no order.

Block 1
Target: Sal-like protein 4, full length isoform B (SALL4, Homo sapiens, UniProt Q9UJQ4-2, residues 1-616)
Technique: universal PBM
Molecule type: double-stranded DNA, one strand shown
Matrix: in vitro
Concentration: not given
Setting: 8-mer, flanks averaged, mean of replicates
Direction: higher = stronger binding
Target sequence (chain): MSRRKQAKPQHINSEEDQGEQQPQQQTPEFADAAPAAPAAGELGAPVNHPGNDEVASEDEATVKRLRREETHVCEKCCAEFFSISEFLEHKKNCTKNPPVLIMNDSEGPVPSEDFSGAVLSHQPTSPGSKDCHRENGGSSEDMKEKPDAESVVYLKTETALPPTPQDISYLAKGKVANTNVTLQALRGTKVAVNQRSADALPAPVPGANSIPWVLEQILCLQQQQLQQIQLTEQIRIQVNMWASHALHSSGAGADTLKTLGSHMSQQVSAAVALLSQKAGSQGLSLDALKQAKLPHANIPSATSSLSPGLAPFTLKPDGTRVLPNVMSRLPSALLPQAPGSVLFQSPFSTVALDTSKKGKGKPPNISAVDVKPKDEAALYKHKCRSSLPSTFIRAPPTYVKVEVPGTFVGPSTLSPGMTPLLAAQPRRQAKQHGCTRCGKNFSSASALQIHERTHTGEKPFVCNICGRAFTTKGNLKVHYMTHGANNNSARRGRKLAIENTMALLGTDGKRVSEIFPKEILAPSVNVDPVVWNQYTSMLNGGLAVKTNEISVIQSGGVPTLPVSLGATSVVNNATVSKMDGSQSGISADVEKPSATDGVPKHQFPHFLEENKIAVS
For `CTGGAGAA`, the E-score was -0.218.
`GCCGGCCA` gave an E-score of -0.251.
`AATTTTAC` gave an E-score of 0.346.
`CCGGCGGA` has an E-score of -0.232.
`AGCATGAG` gave an E-score of -0.0613.

Block 2
Target: Histone acetyltransferase KAT6A, both winged helices, GST fusion (KAT6A, Homo sapiens, UniProt Q92794, residues 1-181)
Technique: protein binding microarray
Molecule type: double-stranded DNA, one strand shown
Matrix: in vitro
Concentration: not given
Setting: 8-mer, flanks averaged, mean of 2 arrays, mostly near background
Relative to: not given
Direction: higher = stronger binding
Target sequence (chain): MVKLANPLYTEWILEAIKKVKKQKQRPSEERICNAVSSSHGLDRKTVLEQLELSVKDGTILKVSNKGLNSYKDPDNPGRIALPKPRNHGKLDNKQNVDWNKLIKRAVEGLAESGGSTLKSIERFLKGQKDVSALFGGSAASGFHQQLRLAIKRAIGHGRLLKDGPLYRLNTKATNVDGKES
For `GCCTGGGA`, the E-score was -0.0475.
`TGTCGAAA` has an E-score of -0.0262.
The E-score of `GGCTTGCA` is reported as -0.12.
`AATTGTGC` has an E-score of -0.0331.
`ACTAGGTG` has an E-score of -0.185.
The E-score of `ATCGGAGC` is reported as 0.0301.

Single results of other studies
RBFOX2 RRM domain, GST-SBP tag: RNA binding protein fox-1 homolog 2, RRM domain, GST-SBP tag (RBFOX2, Homo sapiens, UniProt O43251-10, residues 100-194)
Under “RBNS enrichment (R)”, `GGGAGUUCUACAGUCCGACGAUCUUUUUUCCUGUCCUGUAAAGAGAGAAUUCUUAAGAUAUCAGGCAUAAUGUAUGUACCUUUUCCAGACUGAAGUUCAAAGAAUGAUUAGGUUCAAUCUUUCAGUGGCAGGCUGGAAUUCUCGGGUGCCAA` is recorded as 0.375 (RBFOX2 RRM domain, GST-SBP tag; RNA Bind-n-Seq; RNA, in vitro; 365 nM, natural RNA segment, single round, ends assumed; relative to: no-protein control, higher = stronger binding).
The fold induction of `PhoQ, residues 284 288 289 292 302 303 SSYNSA` is reported as 13.3 (PhoP, residues 12 14 15 18 19 NHFIF (Escherichia coli, UniProt P23836); Sort-seq, measured: YFP reporter; E. coli; PhoQ-PhoP variant library, added: 10 µM Mg2+; relative to: high Mg2+ state, higher = stronger signaling).
`GGGAGUUCUACAGUCCGACGAUCGUGCCCUGUCUACCUUCCCCAGGCAAGAAGAGCCAGGAGGGCACAGGGCUUGCACGUCACUCUGGUCUGUUCAUCGUGGUUCACAGGGCAAGGUGAAAGACACUUGAAUUUGGAAUUCUCGGGUGCCAA`: “RBNS enrichment (R)” 0.426 (RBFOX2 RRM domain, GST-SBP tag; RNA Bind-n-Seq; RNA, in vitro; 365 nM, natural RNA segment, single round, ends assumed; relative to: no-protein control, higher = stronger binding).

Some of these lines once more (block 1):
`GCCGGCCA` gave an E-score of -0.251.
`AATTTTAC` gave an E-score of 0.346.
